Measurements of several laboratories.
Lines come from different studies, so protocols differ. Several values in a cell are separate wells, animals, samples, runs or records. ± gives the spread as reported.
TOP2A: DNA topoisomerase 2-alpha (TOP2A, Homo sapiens, UniProt P11388)
Sequence of UniProt P11388 (whole entry, looked up): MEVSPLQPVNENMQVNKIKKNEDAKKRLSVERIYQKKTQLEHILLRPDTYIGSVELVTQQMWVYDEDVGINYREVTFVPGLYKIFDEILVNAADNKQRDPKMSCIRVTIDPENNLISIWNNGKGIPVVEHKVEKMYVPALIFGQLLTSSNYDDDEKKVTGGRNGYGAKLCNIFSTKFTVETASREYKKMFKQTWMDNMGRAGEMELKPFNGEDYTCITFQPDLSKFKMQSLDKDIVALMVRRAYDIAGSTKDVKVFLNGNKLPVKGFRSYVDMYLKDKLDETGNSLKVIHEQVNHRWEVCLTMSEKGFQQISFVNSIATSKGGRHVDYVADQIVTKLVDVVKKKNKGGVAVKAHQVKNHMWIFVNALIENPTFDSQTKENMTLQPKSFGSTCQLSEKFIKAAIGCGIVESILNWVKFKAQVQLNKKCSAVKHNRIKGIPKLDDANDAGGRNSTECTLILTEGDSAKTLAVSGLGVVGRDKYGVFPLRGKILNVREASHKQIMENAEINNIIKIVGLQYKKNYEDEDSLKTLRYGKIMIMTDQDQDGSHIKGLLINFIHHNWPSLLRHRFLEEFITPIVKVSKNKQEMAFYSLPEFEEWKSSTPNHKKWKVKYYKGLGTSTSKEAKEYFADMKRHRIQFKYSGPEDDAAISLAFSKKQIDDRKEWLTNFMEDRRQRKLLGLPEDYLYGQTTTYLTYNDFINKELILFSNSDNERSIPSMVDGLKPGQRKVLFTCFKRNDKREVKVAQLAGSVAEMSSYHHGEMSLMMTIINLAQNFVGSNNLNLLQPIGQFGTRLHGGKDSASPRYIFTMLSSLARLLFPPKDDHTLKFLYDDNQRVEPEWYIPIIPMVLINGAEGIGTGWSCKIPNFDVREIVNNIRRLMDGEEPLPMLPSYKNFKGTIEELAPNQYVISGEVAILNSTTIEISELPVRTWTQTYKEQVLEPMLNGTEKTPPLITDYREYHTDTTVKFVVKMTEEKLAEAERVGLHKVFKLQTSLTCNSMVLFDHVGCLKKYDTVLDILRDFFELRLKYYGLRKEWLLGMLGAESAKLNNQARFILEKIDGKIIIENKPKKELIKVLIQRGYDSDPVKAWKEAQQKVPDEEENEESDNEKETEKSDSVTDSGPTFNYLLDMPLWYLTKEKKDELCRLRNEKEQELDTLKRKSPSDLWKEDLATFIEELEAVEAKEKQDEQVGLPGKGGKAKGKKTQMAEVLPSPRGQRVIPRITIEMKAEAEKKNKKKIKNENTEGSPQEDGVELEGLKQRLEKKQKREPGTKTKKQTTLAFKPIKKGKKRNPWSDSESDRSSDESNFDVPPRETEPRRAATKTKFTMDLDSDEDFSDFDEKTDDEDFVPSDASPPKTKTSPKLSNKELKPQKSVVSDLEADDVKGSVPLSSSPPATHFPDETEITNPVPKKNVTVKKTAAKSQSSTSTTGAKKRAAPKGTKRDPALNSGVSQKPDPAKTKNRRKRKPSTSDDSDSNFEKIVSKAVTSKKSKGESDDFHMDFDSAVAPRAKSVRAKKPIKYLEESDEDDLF
ZBTB11/CRBN: ZBTB11/CRBN (Homo sapiens, UniProt O95625+Q96SW2)
Sequence of UniProt Q96SW2 (whole entry, looked up): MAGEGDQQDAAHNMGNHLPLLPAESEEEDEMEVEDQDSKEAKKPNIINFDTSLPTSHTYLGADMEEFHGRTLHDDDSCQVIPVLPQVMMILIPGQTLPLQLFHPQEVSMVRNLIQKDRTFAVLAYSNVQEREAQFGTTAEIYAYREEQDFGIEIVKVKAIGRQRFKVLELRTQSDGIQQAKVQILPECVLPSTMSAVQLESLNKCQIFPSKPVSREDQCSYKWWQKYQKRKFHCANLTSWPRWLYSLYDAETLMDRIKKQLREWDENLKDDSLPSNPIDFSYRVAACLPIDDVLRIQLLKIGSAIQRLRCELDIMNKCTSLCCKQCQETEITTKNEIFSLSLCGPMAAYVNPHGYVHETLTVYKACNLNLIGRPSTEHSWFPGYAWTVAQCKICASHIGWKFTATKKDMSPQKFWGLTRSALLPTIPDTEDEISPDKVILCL
Sequence of UniProt O95625 (whole entry, looked up): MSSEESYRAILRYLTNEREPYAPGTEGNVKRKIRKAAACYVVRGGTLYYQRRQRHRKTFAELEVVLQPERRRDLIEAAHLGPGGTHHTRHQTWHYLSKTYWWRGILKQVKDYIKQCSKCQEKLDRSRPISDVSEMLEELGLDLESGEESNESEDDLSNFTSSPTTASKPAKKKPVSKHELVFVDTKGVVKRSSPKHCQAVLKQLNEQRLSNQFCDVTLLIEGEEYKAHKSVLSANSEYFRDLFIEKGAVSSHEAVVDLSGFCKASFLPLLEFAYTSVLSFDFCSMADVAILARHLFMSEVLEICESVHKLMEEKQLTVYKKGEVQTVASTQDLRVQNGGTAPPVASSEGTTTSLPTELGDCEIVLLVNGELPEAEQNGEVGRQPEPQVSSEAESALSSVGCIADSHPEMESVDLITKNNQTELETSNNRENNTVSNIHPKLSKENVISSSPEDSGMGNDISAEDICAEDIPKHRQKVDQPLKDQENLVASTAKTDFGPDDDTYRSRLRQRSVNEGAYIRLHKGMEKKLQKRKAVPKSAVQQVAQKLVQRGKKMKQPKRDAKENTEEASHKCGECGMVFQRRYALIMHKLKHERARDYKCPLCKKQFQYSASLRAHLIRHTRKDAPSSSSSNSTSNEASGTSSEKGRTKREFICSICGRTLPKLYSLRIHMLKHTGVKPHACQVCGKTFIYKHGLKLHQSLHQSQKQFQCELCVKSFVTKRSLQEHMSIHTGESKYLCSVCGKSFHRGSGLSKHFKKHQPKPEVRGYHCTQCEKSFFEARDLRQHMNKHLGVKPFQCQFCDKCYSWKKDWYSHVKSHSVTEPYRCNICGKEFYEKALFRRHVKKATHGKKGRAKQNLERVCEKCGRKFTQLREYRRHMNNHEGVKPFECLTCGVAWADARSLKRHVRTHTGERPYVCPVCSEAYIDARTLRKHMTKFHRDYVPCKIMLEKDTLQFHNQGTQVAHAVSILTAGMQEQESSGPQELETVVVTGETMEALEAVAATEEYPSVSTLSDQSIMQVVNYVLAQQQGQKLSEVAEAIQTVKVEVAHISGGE
T1: riboswitch RNA yjdF aptamer domain (Bacillus subtilis); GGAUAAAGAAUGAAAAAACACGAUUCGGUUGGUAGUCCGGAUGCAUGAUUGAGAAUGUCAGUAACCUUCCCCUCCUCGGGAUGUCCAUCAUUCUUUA
T2: DNA hairpin, hairpin; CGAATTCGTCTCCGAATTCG
Sequence of UniProt Q16774 (whole entry, unmodified, looked up): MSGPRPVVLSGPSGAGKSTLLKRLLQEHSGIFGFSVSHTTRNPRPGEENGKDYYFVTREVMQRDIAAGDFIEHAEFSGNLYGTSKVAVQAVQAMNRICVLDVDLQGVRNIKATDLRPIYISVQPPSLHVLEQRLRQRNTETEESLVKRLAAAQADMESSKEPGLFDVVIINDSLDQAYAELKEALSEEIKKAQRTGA
Sequence of UniProt P51575 (whole entry, unmodified, looked up): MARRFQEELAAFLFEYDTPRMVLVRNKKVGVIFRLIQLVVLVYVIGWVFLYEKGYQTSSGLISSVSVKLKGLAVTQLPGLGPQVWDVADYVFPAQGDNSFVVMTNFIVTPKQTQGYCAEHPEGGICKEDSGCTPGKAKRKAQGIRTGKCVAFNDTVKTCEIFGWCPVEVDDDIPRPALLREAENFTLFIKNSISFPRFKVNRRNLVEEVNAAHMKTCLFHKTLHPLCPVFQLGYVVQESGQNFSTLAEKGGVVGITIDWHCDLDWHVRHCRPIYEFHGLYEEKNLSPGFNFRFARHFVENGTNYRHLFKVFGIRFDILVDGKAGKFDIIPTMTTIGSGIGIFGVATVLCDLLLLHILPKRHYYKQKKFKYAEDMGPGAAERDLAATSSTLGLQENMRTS
Sequence of UniProt O00482 (whole entry, looked up): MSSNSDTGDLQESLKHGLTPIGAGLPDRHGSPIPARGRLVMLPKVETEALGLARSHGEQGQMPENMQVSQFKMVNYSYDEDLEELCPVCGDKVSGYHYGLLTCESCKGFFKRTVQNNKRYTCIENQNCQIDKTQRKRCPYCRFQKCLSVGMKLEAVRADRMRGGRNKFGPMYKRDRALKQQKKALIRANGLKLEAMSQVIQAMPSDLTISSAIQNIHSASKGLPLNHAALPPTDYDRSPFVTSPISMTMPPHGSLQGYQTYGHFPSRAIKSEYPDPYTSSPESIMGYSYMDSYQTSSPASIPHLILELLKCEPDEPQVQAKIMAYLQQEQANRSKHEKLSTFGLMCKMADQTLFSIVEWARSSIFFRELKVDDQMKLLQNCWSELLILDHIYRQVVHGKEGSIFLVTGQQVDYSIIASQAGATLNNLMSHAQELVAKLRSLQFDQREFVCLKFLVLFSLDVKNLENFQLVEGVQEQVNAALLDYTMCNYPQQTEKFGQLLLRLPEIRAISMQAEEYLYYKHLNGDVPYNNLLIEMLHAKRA
Sequence of UniProt P33981 (whole entry, looked up): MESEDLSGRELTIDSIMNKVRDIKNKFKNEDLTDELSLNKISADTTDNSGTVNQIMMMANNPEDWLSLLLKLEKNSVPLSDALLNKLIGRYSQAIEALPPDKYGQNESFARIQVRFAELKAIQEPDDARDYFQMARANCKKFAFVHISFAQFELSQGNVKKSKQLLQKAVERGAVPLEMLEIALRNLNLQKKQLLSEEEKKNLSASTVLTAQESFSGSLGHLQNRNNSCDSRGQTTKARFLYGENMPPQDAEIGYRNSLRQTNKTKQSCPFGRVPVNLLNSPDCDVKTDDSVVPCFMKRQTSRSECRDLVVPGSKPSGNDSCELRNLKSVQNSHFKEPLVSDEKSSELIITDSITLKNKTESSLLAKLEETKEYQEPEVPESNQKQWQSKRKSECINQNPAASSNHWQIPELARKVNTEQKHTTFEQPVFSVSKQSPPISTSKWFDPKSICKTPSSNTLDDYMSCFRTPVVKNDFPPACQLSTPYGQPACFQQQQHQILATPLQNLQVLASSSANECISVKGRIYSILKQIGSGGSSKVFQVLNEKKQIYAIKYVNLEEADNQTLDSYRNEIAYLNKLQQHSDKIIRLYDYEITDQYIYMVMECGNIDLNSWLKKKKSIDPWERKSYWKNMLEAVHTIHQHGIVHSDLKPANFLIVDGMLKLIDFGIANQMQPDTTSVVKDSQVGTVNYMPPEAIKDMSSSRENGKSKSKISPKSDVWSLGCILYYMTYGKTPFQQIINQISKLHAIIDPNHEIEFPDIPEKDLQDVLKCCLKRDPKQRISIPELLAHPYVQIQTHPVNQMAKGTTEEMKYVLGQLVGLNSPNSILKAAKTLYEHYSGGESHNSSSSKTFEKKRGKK

SMILES	tested on	test	test system	conditions	scale	measurement	value
Cc1cc2nc3[nH]c(=O)[nH]c(=O)c3nc2cc1C	T1, riboswitch RNA yjdF aptamer domain (Bacillus subtilis)	fluorescence titration	–	added: 380 nM lumichrome	–	Kd	0.03 µM
[2H]c1cc(C)c(NC(=O)c2cnc(Nc3cc(N4CCCCC4)nc(C)n3)s2)c(Cl)c1	Vascular endothelial growth factor receptor 1 (FLT1, Homo sapiens, UniProt P17948)	–	–	0.01 µM	–	inhibition	< 30%
CN(C)C[C@@H]1CCn2cc(c3ccccc32)C2=C(C(=O)NC2=O)c2cn(c3ccccc23)CCO1	Glycogen synthase kinase-3 alpha (GSK3A, Homo sapiens, UniProt P49840)	kinase activity, inhibitor, Z'-LYTE	–	–	–	Hill slope	1.14
N[C@@H](Cc1ccc(O)cc1)C(=O)Nc1ccc2ccccc2c1	rat neuron-specific aminopeptidase	substrate	–	–	–	Km	10 µM
CCC1(O)CCCN(C(=O)c2ccc(-c3ccc(F)c(NC(=O)CCl)c3)cc2)C1 (stereo not shown)	DNA dC->dU-editing enzyme APOBEC-3B, C-terminal domain (Homo sapiens, UniProt Q9UH17)	covalent modifier, intact protein mass spectrometry, item: adduct +26487 Da	–	25 µM, 3 h, 1-fold molar excess	–	protein adduct	0%
Cc1ncc(COP(=O)(O)O)c(CN)c1O	–	binding, equilibrium dialysis LC-MS	–	5 µM, thermostabilized A2AR-BRIL construct	baseline: no-protein control, direction not given	z-scored log2 fold change	1.07
NCCCS(=O)(=O)O	Sodium- and chloride-dependent taurine transporter (SLC6A6, Homo sapiens, UniProt P31641, G62A)	binding, microscale thermophoresis	–	62.5 µM, room temperature, added: 50 nM labelled protein	higher = more binding	normalised MST signal	-0.00436
O=c1nc(SCc2ccc(C(F)(F)F)cc2)nc(SCc2csc3ccc(Cl)cc23)[nH]1	TOP2A	DNA relaxation	–	31.25 µM	–	mean relaxed DNA	0.3%
N=C(N)c1ccc(-c2ccc(-c3cc4ccc(C(=N)N)cc4[nH]3)s2)cc1	T2, DNA hairpin, hairpin	SPR	–	NaCl 100 mM	–	Kd	0.0065 µM
COc1cc(/C=C/c2ccc(O)cc2)cc(OC)c1	O-methyltransferase (Sorghum bicolor, UniProt A0A1B6PFV1)	ITC	–	concentration not given, added: SAM+	–	binding stoichiometry	0.91
COc1cc(-c2cncc3c2CN(C)Cc2cc(N4CCNCC4)ccc2-3)cc(OC)c1OC	Dual specificity protein kinase TTK (TTK, Homo sapiens, UniProt P33981)	kinase activity	–	1 µM, human enzyme, added: ATP 10 µM	baseline: DMSO control	remaining activity	106%
COc1cc(Nc2ncc3c(n2)-c2ccc(Cl)cc2C(c2c(F)cccc2OC)=NC3)ccc1C(=O)O	STK25	kinase activity	–	1 µM	–	remaining activity	96%
O=C(O)CNC(=O)c1ccc(S(=O)(=O)N2CCC(n3c(=O)oc4ccccc43)CC2)cc1	Ubiquitin carboxyl-terminal hydrolase 39, ZnF-UBD domain (Homo sapiens, UniProt Q53GS9)	–	–	–	–	Kd	> 1000 µM
CN1CCC[C@H]1c1cccnc1	Chrnd/Chrna1/Chrne (Mus musculus, UniProt P02716+P04756+P20782, G173E)	–	–	–	–	kon	4.71e+07 M⁻¹ s⁻¹
Nc1ncnc2c1ncn2[C@@H]1O[C@H](COP(=O)([O-])OP(=O)([O-])OP(=O)(O)O)[C@@H](O)[C@H]1O.[Mg+2]	P2X3-containing receptors (rat)	ion current, patch clamp	nodose ganglion neurons (rat)	10 µM	baseline: AF-353-sensitive ATP current	relative current	3.74 ± 0.73 fold
O=C(O)c1cccc(-c2noc(-c3ccccc3F)n2)c1	Flavin reductase (NADPH) (BLVRB, Homo sapiens, UniProt P30043)	–	–	–	–	kon	3010 M⁻¹ s⁻¹
O=c1nc(SCc2cc(F)cc(C(F)(F)F)c2)nc(SCc2csc3ccc(Cl)cc23)[nH]1	TOP2A	DNA relaxation	–	7.8 µM, replicate 1	–	relaxed DNA	56.7%

SMILES	tested on	test	test system	conditions	scale	measurement	value
Nc1ncnc2c1ncn2C1CCCC1	Inositol-tetrakisphosphate 1-kinase (Homo sapiens, UniProt Q13572)	isothermal titration calorimetry	–	25 °C	–	Gibbs free energy of binding	-9.943 ± 0.0239 kcal/mol
CC[C@H](C)[C@@H]1NC(=O)[C@H](C)NC(=O)[C@H]([C@@H](C)CC)NC(=O)[C@H](CCC(N)=O)NC(=O)[C@H](C)NC(=O)[C@H](CCCNC(=N)N)NC(=O)[C@H](C(C)C)NC(=O)[C@H](CC(C)C)NC(=O)[C@H](CCC(=O)O)NC(=O)[C@H](CCCNC(=N)N)NC(=O)CNC(=O)[C@@H](NC(=O)[C@H](CC(C)C)NC(=O)[C@H](CCCCN)NC(=O)[C@@H](NC(=O)[C@@H](NC(=O)[C@H](CCC(=O)O)NC(=O)[C@H](CCC(=O)O)NC(=O)[C@H](CCSC)NC(=O)[C@H](Cc2c[nH]c3ccccc23)NC(=O)[C@H](CO)NC(=O)[C@@H](N)CC(=O)O)C(C)C)[C@@H](C)CC)CSSC[C@@H]2NC(=O)[C@@H](NC(=O)[C@H](CCCCN)NC(=O)[C@H](CC(N)=O)NC(=O)[C@H](C)NC(=O)[C@H](CC(C)C)NC(=O)[C@H](C)NC(=O)[C@H](CO)NC(=O)[C@H](Cc3ccc(O)cc3)NC(=O)[C@H](CC(C)C)NC(=O)[C@H](CCC(N)=O)NC(=O)c3ccc(-c4c5ccc(=[N+](C)C)cc-5oc5cc(N(C)C)ccc45)c(C(=O)[O-])c3)CSSC[C@H](NC(=O)CNC(=O)[C@H](C(C)C)NC(=O)[C@H](Cc3c[nH]cn3)NC2=O)C(=O)N[C@@H]([C@@H](C)O)C(=O)N[C@@H](CCCCN)C(=O)N[C@@H](CCCNC(=N)N)C(=O)N[C@@H](CO)C(=O)N[C@@H](CC(C)C)C(=O)N[C@@H](C)C(=O)N[C@@H](CCCNC(=N)N)C(=O)N[C@@H](Cc2ccccc2)C(=O)N[C@H](C(=O)O)CSSC[C@@H](C(=O)NCC(=O)N[C@@H](CCSC)C(=O)N[C@@H](CO)C(=O)N[C@H](C(=O)N[C@@H](Cc2c[nH]c3ccccc23)C(=O)N[C@@H](CO)C(=O)O)[C@@H](C)O)NC1=O	Relaxin receptor 1 (RXFP1, Homo sapiens, UniProt Q9HBX9, F76A/Y80A)	dissociation, NanoBRET	–	added: relaxin 10 µM	–	koff fast phase	0.00867 s⁻¹
COC(=O)c1cn(C)c2ccc(-c3cccnc3)cc12	Nuclear receptor subfamily 5 group A member 2 (NR5A2, Homo sapiens, UniProt O00482)	reporter gene, Gal4 hybrid reporter	–	10 µM	baseline: vehicle	activation	0.44 fold
Nc1ncnc2c1ncn2[C@@H]1O[C@H](COP(=O)(O)CP(=O)(O)OP(=O)(O)O)[C@@H](O)[C@H]1O	P2X purinoceptor 1 (P2RX1, Homo sapiens, UniProt P51575, R139A)	saturation binding	HEK293	25 nM	–	specific binding	1380 CCPM and 1120 CCPM
Nc1nc2c(ncn2[C@@H]2O[C@H](COP(=O)(O)O)[C@@H](O)[C@H]2O)c(=O)[nH]1	GUK1 (Homo sapiens, UniProt Q16774, D103A)	enzyme activity, NADH-coupled	–	31.25 µM	–	reaction rate	4.09 s⁻¹ and 4.57 s⁻¹ and 3.3 s⁻¹
Cc1ccc(NC2=CC(=O)N(C3CCC(=O)NC3=O)C2=O)cc1C(C)(C)NCCc1ccc(C(F)(F)F)c(Cl)c1 (stereo not shown)	ZBTB11/CRBN	protein degradation, degrader, HiBiT luminescence	MOLT-4	–	–	Dmax	27%
N#Cc1ccn2c(-c3ccncc3)c(-c3ccc(F)cc3)nc2c1	Negative regulator of the PHO system (PHO85, Candida albicans, UniProt Q9HGY5)	kinase binding, competitor, MIB/MS competition, item: PHO85	Candida albicans cell lysate	100 nM	baseline: DMSO	log2 fold change	0.206
COc1cc(-c2cc(C(C)=O)n3ccccc23)c(OC)cc1Cn1ccnc1	Bromodomain-containing protein 3, BD2 (BRD3, Homo sapiens, UniProt Q15059)	–	–	–	–	ΔTm	4.8 °C
C=CC(=O)N1CCC(COCC(=O)N2CCN(c3nc(-c4cnc(N)nc4C(F)F)nc(N4CCOC[C@@H]4C)n3)CC2)CC1	Serine/threonine-protein kinase NLK (NLK, Homo sapiens, UniProt Q9UBE8)	KINOMEscan	–	1 µM	–	remaining binding	100%
CCC(C)(NCCc1ccc(C(F)(F)F)cc1Cl)c1cccc(NC2=CC(=O)N(C3CCC(=O)NC3=O)C2=O)c1 (stereo not shown)	ZBTB11/CRBN	protein degradation, degrader, HiBiT luminescence	MOLT-4	–	–	Dmax	57%
CCS(=O)(=O)N1CC(CC#N)(n2cc(-c3ncnc4[nH]ccc34)cn2)C1	Alpha-1-acid glycoprotein 1 (ORM1, Homo sapiens, UniProt P02763)	3D fluorescence spectroscopy	–	7.2 µM	–	Stokes shift	54 nm
N#Cc1ccc2c(CN3CCOCC3)cc(-c3ccc([C@H]4CCC(=O)N4)cc3)nc2c1	Advanced glycosylation end product-specific receptor, with DIAPH1 (AGER, Homo sapiens, UniProt Q15109)	acceptor photobleaching	HEK-293T expressing RAGE-eCFP	0.1 µM, 60 min	–	FRET efficiency	4.7 ± 0.5%
O=C(Nc1cccc(C(F)(F)F)c1)N1CCN(c2cccc(C(F)(F)F)c2)CC1	CatSper channel complex (Homo sapiens, UniProt Q7RTX7+Q86XQ3+Q8NEC5+Q96P56)	ion current, whole-cell patch clamp	human sperm	10 µM, at -80 mV	–	inward current density	-3.4 ± 0.2 pA/pF
CC[C@@H]1[C@H](F)C(=O)N[C@@H]1COc1nccc2cc(C(N)=O)c(OC)cc12	Mitogen-activated protein kinase kinase kinase kinase 5 (MAP4K5, Homo sapiens, UniProt Q9Y4K4)	ATP-site probe binding, ActivX profiling, item: KHS1	THP-1 cell lysate	0.04 mM, Lys1 site	–	inhibition	-0.0349%
CCOC(=O)N1CCC(CN(Cc2ccc(Cl)cc2)Cc2ccc([N+](=O)[O-])s2)C1 (stereo not shown)	Nuclear receptor subfamily 1 group D member 1 (NR1D1, Homo sapiens, UniProt P20393)	circular dichroism melt	–	saturating ligand	–	melting temperature	50.7 ± 0.3 °C
C[C@@H](CO)C(=O)O	–	binding, equilibrium dialysis LC-MS	–	5 µM, thermostabilized A2AR-BRIL construct	baseline: no-protein control, direction not given	z-scored log2 fold change	0.783
N#CSCc1cc(=O)oc2cc(O)ccc12	Carbonic anhydrase 12 (CA12, Homo sapiens, UniProt O43570)	stopped-flow CO2 hydration	–	–	baseline: Ki CA I over Ki CA XII	selectivity ratio	> 4240

Excerpt of the above:
SMILES	tested on	test	test system	conditions	scale	measurement	value
Nc1nc2c(ncn2[C@@H]2O[C@H](COP(=O)(O)O)[C@@H](O)[C@H]2O)c(=O)[nH]1	GUK1 (Homo sapiens, UniProt Q16774, D103A)	enzyme activity, NADH-coupled	–	31.25 µM	–	reaction rate	4.09 s⁻¹ and 4.57 s⁻¹ and 3.3 s⁻¹
Cc1ccc(NC2=CC(=O)N(C3CCC(=O)NC3=O)C2=O)cc1C(C)(C)NCCc1ccc(C(F)(F)F)c(Cl)c1 (stereo not shown)	ZBTB11/CRBN	protein degradation, degrader, HiBiT luminescence	MOLT-4	–	–	Dmax	27%
N#Cc1ccn2c(-c3ccncc3)c(-c3ccc(F)cc3)nc2c1	Negative regulator of the PHO system (PHO85, Candida albicans, UniProt Q9HGY5)	kinase binding, competitor, MIB/MS competition, item: PHO85	Candida albicans cell lysate	100 nM	baseline: DMSO	log2 fold change	0.206
COc1cc(-c2cc(C(C)=O)n3ccccc23)c(OC)cc1Cn1ccnc1	Bromodomain-containing protein 3, BD2 (BRD3, Homo sapiens, UniProt Q15059)	–	–	–	–	ΔTm	4.8 °C
C=CC(=O)N1CCC(COCC(=O)N2CCN(c3nc(-c4cnc(N)nc4C(F)F)nc(N4CCOC[C@@H]4C)n3)CC2)CC1	Serine/threonine-protein kinase NLK (NLK, Homo sapiens, UniProt Q9UBE8)	KINOMEscan	–	1 µM	–	remaining binding	100%
CCC(C)(NCCc1ccc(C(F)(F)F)cc1Cl)c1cccc(NC2=CC(=O)N(C3CCC(=O)NC3=O)C2=O)c1 (stereo not shown)	ZBTB11/CRBN	protein degradation, degrader, HiBiT luminescence	MOLT-4	–	–	Dmax	57%
